Published values pooled from the literature.
A part holds a random share of what one study measured.
Chain of UniProt O14757 (whole entry, looked up): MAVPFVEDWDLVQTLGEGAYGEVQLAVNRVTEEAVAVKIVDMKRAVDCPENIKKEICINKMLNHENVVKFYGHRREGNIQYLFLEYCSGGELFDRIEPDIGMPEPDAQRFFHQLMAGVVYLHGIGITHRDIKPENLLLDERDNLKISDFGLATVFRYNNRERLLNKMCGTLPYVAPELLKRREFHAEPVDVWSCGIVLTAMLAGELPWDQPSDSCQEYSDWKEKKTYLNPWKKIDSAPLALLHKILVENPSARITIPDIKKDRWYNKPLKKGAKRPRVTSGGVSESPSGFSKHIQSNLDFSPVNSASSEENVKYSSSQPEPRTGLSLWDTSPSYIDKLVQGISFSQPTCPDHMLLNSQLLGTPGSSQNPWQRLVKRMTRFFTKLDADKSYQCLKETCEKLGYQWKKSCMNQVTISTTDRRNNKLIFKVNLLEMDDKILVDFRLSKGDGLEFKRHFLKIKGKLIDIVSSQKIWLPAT
Chain of UniProt Q02779 (whole entry, looked up): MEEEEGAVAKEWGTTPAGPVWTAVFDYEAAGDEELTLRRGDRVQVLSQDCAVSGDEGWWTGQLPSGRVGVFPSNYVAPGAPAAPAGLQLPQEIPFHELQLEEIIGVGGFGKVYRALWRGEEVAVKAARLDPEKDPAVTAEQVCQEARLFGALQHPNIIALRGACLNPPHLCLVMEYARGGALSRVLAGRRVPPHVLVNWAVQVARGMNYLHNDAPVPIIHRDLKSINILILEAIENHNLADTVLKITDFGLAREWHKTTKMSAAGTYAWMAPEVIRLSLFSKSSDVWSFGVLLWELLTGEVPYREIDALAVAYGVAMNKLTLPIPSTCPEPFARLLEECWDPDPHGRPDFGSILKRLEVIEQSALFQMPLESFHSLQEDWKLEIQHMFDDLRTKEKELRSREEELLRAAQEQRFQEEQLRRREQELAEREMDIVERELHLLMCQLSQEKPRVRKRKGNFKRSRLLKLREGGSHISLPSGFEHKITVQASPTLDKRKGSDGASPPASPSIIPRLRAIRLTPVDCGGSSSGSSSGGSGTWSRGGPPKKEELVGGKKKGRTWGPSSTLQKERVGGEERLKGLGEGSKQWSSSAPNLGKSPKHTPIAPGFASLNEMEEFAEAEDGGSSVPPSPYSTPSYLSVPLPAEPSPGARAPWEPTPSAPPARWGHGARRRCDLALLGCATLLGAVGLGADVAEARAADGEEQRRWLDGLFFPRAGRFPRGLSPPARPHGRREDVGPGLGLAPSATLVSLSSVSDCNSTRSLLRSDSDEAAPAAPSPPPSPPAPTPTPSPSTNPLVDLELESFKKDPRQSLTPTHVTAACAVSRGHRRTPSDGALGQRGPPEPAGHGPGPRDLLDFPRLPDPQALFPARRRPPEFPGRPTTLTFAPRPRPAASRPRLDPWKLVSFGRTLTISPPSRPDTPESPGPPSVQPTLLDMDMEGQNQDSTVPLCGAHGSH
Chain of UniProt Q13976 (whole entry, looked up): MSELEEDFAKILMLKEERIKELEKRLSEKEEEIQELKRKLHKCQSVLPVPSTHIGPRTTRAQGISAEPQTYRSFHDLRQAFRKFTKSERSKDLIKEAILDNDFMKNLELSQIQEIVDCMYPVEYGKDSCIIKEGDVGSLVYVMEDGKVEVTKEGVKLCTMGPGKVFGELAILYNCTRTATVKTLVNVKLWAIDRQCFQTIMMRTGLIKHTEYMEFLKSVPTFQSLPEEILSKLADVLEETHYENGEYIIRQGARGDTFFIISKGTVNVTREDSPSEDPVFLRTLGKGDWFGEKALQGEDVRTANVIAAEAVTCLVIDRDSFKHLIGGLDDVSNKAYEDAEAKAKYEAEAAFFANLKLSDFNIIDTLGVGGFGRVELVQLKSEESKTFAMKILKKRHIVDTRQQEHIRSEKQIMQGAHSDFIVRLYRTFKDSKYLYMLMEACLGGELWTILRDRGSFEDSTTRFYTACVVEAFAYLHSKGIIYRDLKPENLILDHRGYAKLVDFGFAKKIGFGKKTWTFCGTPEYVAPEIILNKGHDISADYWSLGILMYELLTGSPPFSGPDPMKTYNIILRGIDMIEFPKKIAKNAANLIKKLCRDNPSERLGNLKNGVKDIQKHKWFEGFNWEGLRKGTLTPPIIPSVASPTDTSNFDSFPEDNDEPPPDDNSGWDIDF
Chain of UniProt Q05397 (whole entry, looked up): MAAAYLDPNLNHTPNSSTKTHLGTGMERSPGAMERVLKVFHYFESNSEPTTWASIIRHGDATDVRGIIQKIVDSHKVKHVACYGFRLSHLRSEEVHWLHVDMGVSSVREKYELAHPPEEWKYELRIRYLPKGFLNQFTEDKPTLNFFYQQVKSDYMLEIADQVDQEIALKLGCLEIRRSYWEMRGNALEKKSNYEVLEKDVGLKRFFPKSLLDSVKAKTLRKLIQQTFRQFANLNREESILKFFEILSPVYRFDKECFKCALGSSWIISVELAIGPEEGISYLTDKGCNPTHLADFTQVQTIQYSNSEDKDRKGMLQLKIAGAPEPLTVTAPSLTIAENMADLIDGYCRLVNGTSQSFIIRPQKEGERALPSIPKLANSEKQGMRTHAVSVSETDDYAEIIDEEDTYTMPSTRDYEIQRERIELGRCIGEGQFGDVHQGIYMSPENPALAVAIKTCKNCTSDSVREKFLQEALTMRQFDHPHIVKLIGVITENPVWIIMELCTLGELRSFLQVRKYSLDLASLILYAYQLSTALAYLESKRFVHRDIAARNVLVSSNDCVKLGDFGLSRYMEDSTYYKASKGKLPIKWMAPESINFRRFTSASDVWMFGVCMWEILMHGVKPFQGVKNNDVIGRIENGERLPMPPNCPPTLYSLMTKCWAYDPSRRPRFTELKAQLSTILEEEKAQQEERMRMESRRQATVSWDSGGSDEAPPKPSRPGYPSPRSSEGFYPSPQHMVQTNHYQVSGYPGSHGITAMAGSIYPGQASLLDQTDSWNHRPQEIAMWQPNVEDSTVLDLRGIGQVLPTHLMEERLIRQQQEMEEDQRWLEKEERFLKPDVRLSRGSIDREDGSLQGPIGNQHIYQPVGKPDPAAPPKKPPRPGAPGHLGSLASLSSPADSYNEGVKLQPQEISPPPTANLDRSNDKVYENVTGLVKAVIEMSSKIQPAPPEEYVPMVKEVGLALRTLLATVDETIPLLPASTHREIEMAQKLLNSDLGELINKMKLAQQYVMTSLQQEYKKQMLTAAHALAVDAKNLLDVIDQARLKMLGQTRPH
Chain of UniProt Q96L34 (whole entry, looked up): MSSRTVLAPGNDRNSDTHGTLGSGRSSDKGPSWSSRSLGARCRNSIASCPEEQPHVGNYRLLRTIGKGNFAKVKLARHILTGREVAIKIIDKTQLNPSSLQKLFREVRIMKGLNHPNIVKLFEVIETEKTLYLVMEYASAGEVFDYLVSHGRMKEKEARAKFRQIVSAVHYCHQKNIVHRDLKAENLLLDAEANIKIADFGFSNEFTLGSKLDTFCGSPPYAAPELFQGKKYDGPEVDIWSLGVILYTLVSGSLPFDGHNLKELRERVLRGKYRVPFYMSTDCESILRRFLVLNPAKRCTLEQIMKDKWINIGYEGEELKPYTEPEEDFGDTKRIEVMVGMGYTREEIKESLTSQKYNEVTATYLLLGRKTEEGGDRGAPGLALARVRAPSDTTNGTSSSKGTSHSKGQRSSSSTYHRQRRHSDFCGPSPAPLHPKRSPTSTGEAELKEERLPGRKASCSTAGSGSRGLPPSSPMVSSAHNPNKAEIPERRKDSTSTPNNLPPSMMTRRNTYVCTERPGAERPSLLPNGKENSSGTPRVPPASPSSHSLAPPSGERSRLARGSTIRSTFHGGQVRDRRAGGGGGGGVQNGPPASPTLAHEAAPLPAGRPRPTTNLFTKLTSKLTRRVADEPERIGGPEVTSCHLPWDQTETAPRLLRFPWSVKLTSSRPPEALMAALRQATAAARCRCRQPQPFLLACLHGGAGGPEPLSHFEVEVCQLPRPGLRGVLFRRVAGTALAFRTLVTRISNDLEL
Chain of UniProt P68400 (whole entry, looked up): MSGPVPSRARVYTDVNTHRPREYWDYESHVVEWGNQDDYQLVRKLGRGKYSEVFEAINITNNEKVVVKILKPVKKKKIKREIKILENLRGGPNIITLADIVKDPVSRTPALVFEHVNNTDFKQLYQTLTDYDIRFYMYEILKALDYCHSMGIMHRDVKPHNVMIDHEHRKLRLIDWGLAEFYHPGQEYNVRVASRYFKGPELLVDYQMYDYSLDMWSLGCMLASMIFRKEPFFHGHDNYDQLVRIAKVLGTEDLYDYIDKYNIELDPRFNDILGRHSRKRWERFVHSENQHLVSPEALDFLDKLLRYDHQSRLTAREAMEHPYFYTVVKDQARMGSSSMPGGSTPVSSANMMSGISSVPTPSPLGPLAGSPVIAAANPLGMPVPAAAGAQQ
Chain of UniProt Q9Y616 (whole entry, looked up): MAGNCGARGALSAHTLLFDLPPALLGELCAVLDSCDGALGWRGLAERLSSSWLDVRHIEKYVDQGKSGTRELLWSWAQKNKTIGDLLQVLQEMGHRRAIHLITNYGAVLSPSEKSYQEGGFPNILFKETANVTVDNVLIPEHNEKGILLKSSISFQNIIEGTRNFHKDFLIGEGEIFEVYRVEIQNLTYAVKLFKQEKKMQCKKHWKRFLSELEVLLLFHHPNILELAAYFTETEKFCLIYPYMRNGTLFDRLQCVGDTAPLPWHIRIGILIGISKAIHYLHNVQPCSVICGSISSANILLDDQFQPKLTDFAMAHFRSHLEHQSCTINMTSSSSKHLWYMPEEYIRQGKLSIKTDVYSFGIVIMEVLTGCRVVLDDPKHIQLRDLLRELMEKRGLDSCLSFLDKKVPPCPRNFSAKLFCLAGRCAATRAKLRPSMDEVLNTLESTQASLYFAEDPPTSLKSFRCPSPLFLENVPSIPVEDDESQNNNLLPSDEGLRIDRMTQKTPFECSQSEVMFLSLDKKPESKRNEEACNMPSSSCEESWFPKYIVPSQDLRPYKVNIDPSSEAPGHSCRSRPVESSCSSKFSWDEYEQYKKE

Sample 1
Structure (SMILES): Nc1[nH]nc2nnc(-c3c(-c4ccccc4)nn4ccccc34)cc12
Observed: enzyme activity
Action: inhibitor
Tested at: 0.5 µM
Reference: control
target | remaining activity [%]
CSNK1A1 (Homo sapiens, UniProt P48729) | 100
KIT (Homo sapiens, UniProt P10721) | 97.1
MKNK2 (Homo sapiens, UniProt Q9HBH9) | 98.3
BTK (Homo sapiens, UniProt Q06187) | 93.6
MAPK13 (Homo sapiens, UniProt O15264) | 101
MAP4K2 (Homo sapiens, UniProt Q12851) | 98.6
IRAK4 (Homo sapiens, UniProt Q9NWZ3) | 99.7
LYN (Homo sapiens, UniProt P07948) | 94.9
MAP2K6 (Homo sapiens, UniProt P52564) | 90.9
Cyclin-dependent kinase 9, with cyclin T1 (CDK9, Homo sapiens, UniProt P50750) | 97.3
AKT3 (Homo sapiens, UniProt Q9Y243) | 97.5
EPHA5 (Homo sapiens, UniProt P54756) | 101
MAPK12 (Homo sapiens, UniProt P53778) | 104
CSNK2A1 (Homo sapiens, UniProt P68400) | 94.8
CHEK1 (Homo sapiens, UniProt O14757) | 103
PRKCD (Homo sapiens, UniProt Q05655) | 31.2
PLK2 (Homo sapiens, UniProt Q9NYY3) | 107
MAP3K10 (Homo sapiens, UniProt Q02779) | 90.7
PRKCI (Homo sapiens, UniProt P41743) | 98.3
PRKG1 (Homo sapiens, UniProt Q13976) | 93.6
LRRK2 (Homo sapiens, UniProt Q5S007) | 91.8
WNK2 (Homo sapiens, UniProt Q9Y3S1) | 111
NEK4 (Homo sapiens, UniProt P51957) | 88.4

Sample 2
Compound: COc1cc(-c2cn(C3CCc4c(F)cccc4N(CC(F)(F)F)C3=O)nn2)ccc1-n1cnc(C)c1 (centres unmarked)
Tested at: 1 µM
target | test | remaining binding [%]
EPHA2 (Homo sapiens, UniProt P29317) | cell-free assay, competition with immobilised ligand | 100
MAP3K5 (Homo sapiens, UniProt Q99683) | cell-free assay, competition with immobilised ligand | 100
TYRO3 (Homo sapiens, UniProt Q06418) | cell-free assay, competition with immobilised ligand | 100
TEK (Homo sapiens, UniProt Q02763) | cell-free assay, competition with immobilised ligand | 100
EPHB3 (Homo sapiens, UniProt P54753) | cell-free assay, competition with immobilised ligand | 100
EGFR (Homo sapiens, UniProt P00533, G719C) | cell-free assay, competition with immobilised ligand | 94
CHEK1 (Homo sapiens, UniProt O14757) | cell-free assay, competition with immobilised ligand | 100
GRK2 (Homo sapiens, UniProt P25098) | cell-free assay, competition with immobilised ligand | 100
SYK (Homo sapiens, UniProt P43405) | cell-free assay, competition with immobilised ligand | 100
PNCK (Homo sapiens, UniProt Q6P2M8) | cell-free assay, competition with immobilised ligand | 100
MAP4K3 (Homo sapiens, UniProt Q8IVH8) | cell-free assay, competition with immobilised ligand | 100
Tyrosine-protein kinase ABL1, phosphorylated (ABL1, Homo sapiens, UniProt P00519, F317I) | binding | 100
IGF1R (Homo sapiens, UniProt P08069) | cell-free assay, competition with immobilised ligand | 100
CDK4 (Homo sapiens, UniProt P11802) | cell-free assay, competition with immobilised ligand | 88
CDK5 (Homo sapiens, UniProt Q00535) | cell-free assay, competition with immobilised ligand | 100
MATK (Homo sapiens, UniProt P42679) | cell-free assay, competition with immobilised ligand | 100
PTK2 (Homo sapiens, UniProt Q05397) | cell-free assay, competition with immobilised ligand | 100
ALK (Homo sapiens, UniProt Q9UM73) | cell-free assay, competition with immobilised ligand | 100

Sample 3
Structure (SMILES): C=CC(=O)N1CCC([C@@H]2CCNc3c(C(N)=O)c(-c4ccc(Oc5ccccc5)cc4)nn32)CC1
Tested at: 1 µM
target | test | inhibition
BRSK2 (Homo sapiens, UniProt Q8IWQ3) | enzyme activity, inhibitor | 19%
IRAK3 (Homo sapiens, UniProt Q9Y616) | enzyme activity, inhibitor | 5%
FES (Homo sapiens, UniProt P07332) | enzyme activity, inhibitor | 4%
LATS2 (Homo sapiens, UniProt Q9NRM7) | enzyme activity, inhibitor | 0%
SNRK (Homo sapiens, UniProt Q9NRH2) | enzyme activity, inhibitor | 0%
WNK4 (Homo sapiens, UniProt Q96J92) | enzyme activity, inhibitor | 38%
MARK4 (Homo sapiens, UniProt Q96L34) | enzyme activity, inhibitor | 3%
MAP4K5 (Homo sapiens, UniProt Q9Y4K4) | enzyme activity, inhibitor | 27%
CDKL5 (Homo sapiens, UniProt O76039) | enzyme activity | 0%
CAMK2G (Homo sapiens, UniProt Q13555) | inhibitor | 0%
CDC42BPA (Homo sapiens, UniProt Q5VT25) | enzyme activity, inhibitor | 0%
MYLK (Homo sapiens, UniProt Q15746) | enzyme activity, inhibitor | 23%

Sample 4
Structure (SMILES): CC(C)n1cnc(-c2ccc(F)cc2)c1-c1ncc(C(=O)Nc2ccc(N3CCN(C)CC3)cc2)[nH]1
Technique: phase 2a trial
Host: idiopathic pulmonary fibrosis patients
test | setting | adverse event incidence
refers to: synovitis | dose not given, grade 3, all arms pooled | 0%
refers to: liver injury | 30 mg once daily, grade 4 | 0%
refers to: chronic gastritis | dose not given, grade 5, all arms pooled | 0%
refers to: ECG ST segment abnormal | 60 mg once daily, grade 4 | 0%
refers to: hydroxybutyrate dehydrogenase increased | 60 mg once daily, grade 4 | 0%
refers to: proteinuria | dose not given, grade 4, all arms pooled | 0%
refers to: gingivitis | 30 mg once daily, grade 3 | 0%
refers to: QRS axis abnormal | 60 mg once daily, grade 3 | 0%
refers to: chronic gastritis | dose not given, grade 2, all arms pooled | 0%
refers to: carotid intima-media thickening | 60 mg once daily, grade 5 | 0%
refers to: liver injury | 30 mg once daily, grade 5 | 0%
refers to: hepatic enzyme abnormal | 60 mg once daily, grade 5 | 0%
refers to: infection | dose not given, grade 5, all arms pooled | 0%
refers to: liver injury | dose not given, grade 1, all arms pooled | 0%
refers to: gingivitis | 30 mg once daily, grade 5 | 0%
refers to: ventricular extrasystoles | dose not given, grade 4, all arms pooled | 0%
refers to: weight decreased | 30 mg once daily, grade 1 | 0%
refers to: infection | 30 mg once daily, grade 1 | 0%

A few entries again (sample 4):
test | setting | adverse event incidence
refers to: synovitis | dose not given, grade 3, all arms pooled | 0%
refers to: liver injury | 30 mg once daily, grade 4 | 0%
refers to: chronic gastritis | dose not given, grade 5, all arms pooled | 0%
refers to: ECG ST segment abnormal | 60 mg once daily, grade 4 | 0%
